{"data": "Measurements gathered from unrelated publications", "note": "Protocols differ between the studies behind these lines. Numbers after ± are the reported error."}
{"SMILES": "CC1(C)[C@H](NC(=O)c2cnn(CCO)c2)C(C)(C)[C@H]1Oc1ccc(C#N)c(Cl)c1", "tested on": "MDA-MB-415", "assay": "cell growth or viability, CCK-8", "setting": "7 days", "quantity": "IC50", "value": "> 10000 nM"}
{"SMILES": "Cc1ccc([N+](=O)[O-])cc1S(=O)(=O)N(C)/N=C/c1cnc2ccc(Br)cn12", "tested on": "TK-10", "assay": "MTS", "setting": "NCI60 panel", "quantity": "IC50", "value": "805 nM"}
{"SMILES": "CCCC(CCC)C(=O)[O][Pt]([NH2])([NH2])([Cl])([Cl])[O]C(C)=O", "tested on": "C13* cisplatin-resistant ovarian", "assay": "cytotoxicity, MTT", "setting": "72 h", "quantity": "IC50", "value": "1750 ± 700 nM"}
{"SMILES": "Oc1ccc(C#Cc2c(O)ccc3c2C(c2ccc(O)cc2)(c2ccc(O)cc2)c2cc(O)ccc2-3)cc1", "tested on": "MGC-803", "assay": "cell growth or viability, MTT", "setting": "48 h", "quantity": "IC50", "value": "16100 nM"}
{"SMILES": "CC(C)c1ccc(N(C)c2ccc3c(c2)OCC[C@H]3CNc2cnccc2C(=O)O)cc1", "tested on": "KARPAS-422", "assay": "cell growth or viability, ATP luminescence", "setting": "7 days", "quantity": "IC50", "value": "6.53 nM"}
{"SMILES": "CCC(=CCc1c(O)cc2c(c1O)C(=O)CC(c1ccccc1O)O2)CC (stereo not drawn)", "tested on": "normal pig cell line", "assay": "cytotoxicity, MTT", "setting": "48 h", "quantity": "IC50", "value": "> 120000 nM"}
{"SMILES": "Cc1ncsc1-c1ccc(C(C)NC(=O)C2CC(O)CN2C(=O)C(NC(=O)CCCCCCCCCCN2CCCC(Nc3ncc(Cl)c(Nc4ccccc4S(=O)(=O)C(C)C)n3)C2)C(C)(C)C)cc1 (stereo not drawn)", "tested on": "22Rv1", "assay": "RNA-seq, item: TRIM68 mRNA", "setting": "concentration not given", "scale": "baseline: DMSO", "quantity": "log2 fold change", "value": -1.38}
{"SMILES": "O=C(Nc1ccc(C(=O)Nc2ccc3[nH]ncc3c2)cc1F)Nc1cc(C(F)(F)F)ccc1F", "tested on": "KM12", "assay": "cell growth or viability, ATP luminescence", "setting": "72 h", "quantity": "IC50", "value": "33400 nM"}
{"SMILES": "O=C1C2=Nc3ccccc3CN2C(=S)N1[C@H]1CCCc2ccccc21", "tested on": "healthy human PBMCs", "assay": "cell viability, resazurin", "quantity": "IC50", "value": "37900 ± 1500 nM"}
{"SMILES": "C=CC(=O)Nc1cccc(Cn2ncc3cnc(Nc4cnn(CCOC)c4)nc32)c1", "tested on": "MAP4K4 human", "assay": "binding, KINOMEscan", "setting": "100 nM", "scale": "lower = stronger binding", "quantity": "percent of control", "value": "78%"}
{"SMILES": "CCC(=CCc1c(O)cc2c(c1O)C(=O)CC(c1ccc(O)c(OC)c1)O2)CC (stereo not drawn)", "tested on": "normal pig cell line", "assay": "cytotoxicity, MTT", "setting": "48 h", "quantity": "IC50", "value": "16800 ± 3600 nM"}
{"SMILES": "O=C(Nc1ccc(C(=O)Nc2ccc3[nH]ncc3c2)c(F)c1)Nc1cc(C(F)(F)F)ccc1F", "tested on": "KM12", "assay": "cell growth or viability, ATP luminescence", "setting": "72 h", "quantity": "IC50", "value": "> 50000 nM"}
{"SMILES": "C=CC(=O)N1CCC[C@@H](c2ccc(C(N)=O)c3[nH]ccc23)C1", "tested on": "TMD8, parental", "assay": "cell viability, CellTiter-Glo", "setting": "4 days", "quantity": "IC50", "value": "199 nM"}
{"SMILES": "NC(=O)c1ccc(-c2ccccc2Cl)c2c3c([nH]c12)CCC(N)C3 (stereo not drawn)", "tested on": "K562", "assay": "cell growth or viability", "quantity": "IC50", "value": "26.5 nM"}
{"SMILES": "COC1CN([C@H]2CC[C@H]([C@@]3(C)Oc4c(Cl)cc(C(=O)NCc5c(SC)cc(C)[nH]c5=O)c(C)c4O3)CC2)C1", "assay": "RNA-seq, item: HPGD mouse homolog", "test system": "mouse, HT-1376 xenograft, whole blood", "setting": "dose not given", "scale": "baseline: vehicle", "quantity": "log2 fold change", "value": 0.868}
{"SMILES": "O=Cc1ccc(-c2ccc(O)cc2)c(C(=C2C=CC(=O)C=C2)c2ccc(O)cc2)c1C#Cc1ccc(O)cc1", "tested on": "MGC-803", "assay": "cell growth or viability, MTT", "setting": "48 h", "quantity": "IC50", "value": "9950 nM"}
{"SMILES": "C=CC(=O)N1CC2C(=O)N(CCN(C)C)c3c(c4cc(Cl)c(-c5c(O)cccc5F)nc4n(-c4c(C)ccnc4C(C)C)c3=O)N2CC1C (stereo not drawn)", "tested on": "NCI-H1792", "assay": "cell growth or viability", "quantity": "IC50", "value": "10.2 nM"}
{"SMILES": "O=C(Nc1ccc(C(=O)Nc2ccc3[nH]ncc3c2)c(Cl)c1)Nc1cc(C(F)(F)F)ccc1F", "tested on": "KM12", "assay": "cell growth or viability, ATP luminescence", "setting": "72 h", "quantity": "IC50", "value": "> 50000 nM"}
{"SMILES": "CCC(=CCc1c(O)cc2c(c1O)C(=O)CC(c1cccc(O)c1OC)O2)CC (stereo not drawn)", "tested on": "normal pig cell line", "assay": "cytotoxicity, MTT", "setting": "48 h", "quantity": "IC50", "value": "53600 ± 8600 nM"}
{"SMILES": "O=[N+]([O-])c1ccc(C=NNC(Nc2ccccc2)=[S+][Au-][Cl])o1", "tested on": "CAKI-1", "assay": "cell growth or viability, resazurin", "quantity": "IC50", "value": "40000 nM"}
{"SMILES": "COc1cc(C(=O)N/N=C/c2cccc3ccccc23)cc(OC)c1OC", "tested on": "TALL-1", "assay": "cell growth or viability, MTT", "setting": "48 h", "quantity": "IC50", "value": "89.2 nM"}
{"SMILES": "C[C@@H](c1ccc2ccccc2c1)N1C(=O)C2=Nc3ccccc3CN2C1=S", "tested on": "healthy human PBMCs", "assay": "cell viability, resazurin", "quantity": "IC50", "value": "2100 ± 1500 nM"}
{"SMILES": "CNS(=O)(=O)Nc1nccc(Cc2c(C)c3ccc(Oc4ncccc4F)cc3oc2=O)c1F", "tested on": "NCI-H747", "assay": "cell viability", "setting": "7 days", "quantity": "IC50", "value": "45.3 nM"}
{"SMILES": "C=C(NC(=O)c1csc(-c2nc3c(cc2O)-c2nc(cs2)C(=O)NC(C(C)O)C(=O)NC(=C(C)OC)c2nc(cs2)C(=O)NC2c4nc(cs4)C(=O)NC(COC(=O)c4c5c6c(cccc6n4O)COC(=O)C(OC4CC(C)(O)C(N(C)C)C(C)O4)C2OC5)c2nc-3cs2)n1)C(N)=O (stereo not drawn)", "test system": "cynomolgus monkey, plasma", "setting": "intravenous, 3 mg/kg, single dose, infusion", "quantity": "Cmax", "value": "16000 ng/mL"}
{"SMILES": "COc1ccc2c(c1)CN1C(=S)N([C@H](C)c3ccccc3)C(=O)C1=N2", "tested on": "healthy human PBMCs", "assay": "cell viability, resazurin", "quantity": "IC50", "value": "1900 ± 400 nM"}
{"SMILES": "Cn1cc(-c2n[nH]c3ccc(NC(=O)c4cccc(NC(=O)Nc5ccc(C(F)(F)F)cc5)c4)cc23)cn1", "tested on": "KM12", "assay": "cell growth or viability, ATP luminescence", "setting": "72 h", "quantity": "IC50", "value": "> 50000 nM"}
{"SMILES": "Cc1cnc2nc1Nc1cccc(c1)COC/C=C/COCc1cc(ccc1OCCN1CCCCC1)N2", "tested on": "SET-2", "assay": "cell growth or viability, CCK-8", "quantity": "IC50", "value": "14600 nM"}
{"SMILES": "CCn1nc(Cl)c2c1-c1cnc(N)c(c1)O[C@H](C)c1cc(F)ccc1-c1nn(C)cc1C2", "tested on": "KARPAS-299 (NPM1-ALK)", "assay": "cell viability", "quantity": "IC50", "value": "1.95 nM"}
{"SMILES": "Nc1nc2cnc(C(=O)N3CCOC[C@@H]3c3ccc(C(F)(F)F)cc3)cc2c2c1COC2", "tested on": "HCT-116 MTAP-deleted", "assay": "global SDMA level, item: SDMA", "setting": "72 h", "quantity": "IC50", "value": "0.9 nM"}
{"SMILES": "COc1ccc(C2CC(=O)c3c(cc(O)c(CC=C(C)C)c3O)O2)cc1 (stereo not drawn)", "tested on": "normal pig cell line", "assay": "cytotoxicity, MTT", "setting": "48 h", "quantity": "IC50", "value": "> 120000 nM"}
{"SMILES": "CN1CCC(N[C@H]2CCc3[nH]c4c(C(N)=O)ccc(-c5ccccc5Cl)c4c3C2)CC1", "tested on": "NCI-H446", "assay": "cell proliferation", "setting": "96 h", "quantity": "IC50", "value": "1240 nM"}
{"SMILES": "CC(=O)N[C@@H](CSC1CC(=O)N(CCCCCC(=O)NC2(C(=O)N3CCC(n4cc(Cc5ccc6c7c(cccc57)C(=O)N6C5CCC(=O)NC5=O)cn4)CC3)CCC2)C1=O)C(=O)O (stereo partly drawn)", "tested on": "NCI-H929", "assay": "cell growth or viability", "setting": "72 h", "quantity": "IC50", "value": "14.9 nM"}
{"SMILES": "Nc1ncc(-c2cc(-c3cnn(CC(F)(F)F)c3)ncc2F)nc1C(=O)NC1CNCC(F)C1 (stereo not drawn)", "tested on": "CAMK1D", "assay": "KINOMEscan", "setting": "1 µM", "scale": "baseline: DMSO control", "quantity": "remaining binding", "value": "68%"}
{"SMILES": "COCC1CN(C2CCN(c3cc(OC)c(Nc4ncc(Br)c(Nc5ccc6c(c5P(C)(C)=O)OCCO6)n4)cc3C)CC2)C1", "tested on": "Ba/F3 EGFR Del19/T790M/C797S", "assay": "cell growth, CellTiter-Glo", "setting": "3 days", "quantity": "IC50", "value": "25 nM"}
{"SMILES": "CCOc1cncc(-c2ccc(NC(=O)C3(c4ccnc(NS(=O)(=O)C5CC5)n4)CCOCC3)nc2)n1", "tested on": "SW756", "assay": "cell growth or viability, ATP luminescence", "setting": "72 h", "quantity": "IC50", "value": "141 nM"}
{"SMILES": "C[C@@H](c1ccccc1)N1C(=O)C2=Nc3ccccc3CN2C1=S", "tested on": "healthy human PBMCs", "assay": "cell viability, resazurin", "quantity": "IC50", "value": "2900 ± 200 nM"}
{"SMILES": "COc1c(Cl)cccc1Nc1c(-c2ccncc2C#C[C@@]2(C)CCCN2C(=O)/C=C/CN(C)C)[nH]c2c1C(=O)NCC2", "tested on": "NCI-H2073 ASV knock-in", "assay": "cell proliferation, CellTiter-Glo", "setting": "72 h, geometric mean", "quantity": "IC50", "value": "10.1 nM"}
{"SMILES": "COC[C@H](C)N1C(=O)C2=Nc3ccccc3CN2C1=S", "tested on": "healthy human PBMCs", "assay": "cell viability, resazurin", "quantity": "IC50", "value": "> 100000 nM"}
{"SMILES": "Cn1cc(-c2n[nH]c3ccc(NC(=O)c4cccc(NC(=O)Nc5ccc(OC(F)(F)F)cc5)c4)cc23)cn1", "tested on": "KM12", "assay": "cell growth or viability, ATP luminescence", "setting": "72 h", "quantity": "IC50", "value": "> 50000 nM"}
{"note": "A few entries again:"}
{"SMILES": "CC(C)c1ccc(N(C)c2ccc3c(c2)OCC[C@H]3CNc2cnccc2C(=O)O)cc1", "tested on": "KARPAS-422", "assay": "cell growth or viability, ATP luminescence", "setting": "7 days", "quantity": "IC50", "value": "6.53 nM"}
{"SMILES": "COc1ccc2c(c1)CN1C(=S)N([C@H](C)c3ccccc3)C(=O)C1=N2", "tested on": "healthy human PBMCs", "assay": "cell viability, resazurin", "quantity": "IC50", "value": "1900 ± 400 nM"}
{"SMILES": "C=CC(=O)Nc1cccc(Cn2ncc3cnc(Nc4cnn(CCOC)c4)nc32)c1", "tested on": "MAP4K4 human", "assay": "binding, KINOMEscan", "setting": "100 nM", "scale": "lower = stronger binding", "quantity": "percent of control", "value": "78%"}
{"SMILES": "NC(=O)c1ccc(-c2ccccc2Cl)c2c3c([nH]c12)CCC(N)C3 (stereo not drawn)", "tested on": "K562", "assay": "cell growth or viability", "quantity": "IC50", "value": "26.5 nM"}
{"SMILES": "C[C@@H](c1ccccc1)N1C(=O)C2=Nc3ccccc3CN2C1=S", "tested on": "healthy human PBMCs", "assay": "cell viability, resazurin", "quantity": "IC50", "value": "2900 ± 200 nM"}
